Values quoted from earlier work that unrelated publications cite.
Protocols differ between the studies behind these lines. ± marks the error that the study gave.

Chains of the proteins cited; added tags and fusions are not shown.
UniProt P9WHE9, whole entry: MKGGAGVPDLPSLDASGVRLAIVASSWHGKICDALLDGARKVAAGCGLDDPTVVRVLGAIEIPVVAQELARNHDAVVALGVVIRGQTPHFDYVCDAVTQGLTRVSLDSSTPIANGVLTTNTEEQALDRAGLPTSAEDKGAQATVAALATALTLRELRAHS
UniProt P33534, whole entry: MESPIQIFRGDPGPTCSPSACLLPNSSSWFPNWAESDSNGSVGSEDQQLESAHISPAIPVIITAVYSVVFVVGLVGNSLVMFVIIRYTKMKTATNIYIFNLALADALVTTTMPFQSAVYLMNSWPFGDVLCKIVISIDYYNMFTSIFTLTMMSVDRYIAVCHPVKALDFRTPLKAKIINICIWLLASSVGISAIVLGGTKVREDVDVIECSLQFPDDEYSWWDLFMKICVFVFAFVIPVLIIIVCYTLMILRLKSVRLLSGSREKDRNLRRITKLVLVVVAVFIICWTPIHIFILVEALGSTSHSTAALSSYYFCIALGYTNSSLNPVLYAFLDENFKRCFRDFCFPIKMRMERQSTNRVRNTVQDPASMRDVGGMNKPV
UniProt P28223, whole entry: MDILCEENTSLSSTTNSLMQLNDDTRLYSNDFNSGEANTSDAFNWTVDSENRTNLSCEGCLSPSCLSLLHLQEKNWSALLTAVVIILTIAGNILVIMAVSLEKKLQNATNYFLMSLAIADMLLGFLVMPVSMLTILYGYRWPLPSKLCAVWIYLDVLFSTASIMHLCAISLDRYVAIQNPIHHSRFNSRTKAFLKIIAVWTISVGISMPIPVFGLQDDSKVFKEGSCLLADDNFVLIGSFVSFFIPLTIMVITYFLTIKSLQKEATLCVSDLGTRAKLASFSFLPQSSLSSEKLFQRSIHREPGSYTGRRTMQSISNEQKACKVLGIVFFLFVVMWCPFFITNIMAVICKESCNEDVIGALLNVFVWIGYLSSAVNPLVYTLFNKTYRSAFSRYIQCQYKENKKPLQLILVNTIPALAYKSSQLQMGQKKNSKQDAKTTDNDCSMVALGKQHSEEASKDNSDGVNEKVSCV
UniProt P31652, whole entry: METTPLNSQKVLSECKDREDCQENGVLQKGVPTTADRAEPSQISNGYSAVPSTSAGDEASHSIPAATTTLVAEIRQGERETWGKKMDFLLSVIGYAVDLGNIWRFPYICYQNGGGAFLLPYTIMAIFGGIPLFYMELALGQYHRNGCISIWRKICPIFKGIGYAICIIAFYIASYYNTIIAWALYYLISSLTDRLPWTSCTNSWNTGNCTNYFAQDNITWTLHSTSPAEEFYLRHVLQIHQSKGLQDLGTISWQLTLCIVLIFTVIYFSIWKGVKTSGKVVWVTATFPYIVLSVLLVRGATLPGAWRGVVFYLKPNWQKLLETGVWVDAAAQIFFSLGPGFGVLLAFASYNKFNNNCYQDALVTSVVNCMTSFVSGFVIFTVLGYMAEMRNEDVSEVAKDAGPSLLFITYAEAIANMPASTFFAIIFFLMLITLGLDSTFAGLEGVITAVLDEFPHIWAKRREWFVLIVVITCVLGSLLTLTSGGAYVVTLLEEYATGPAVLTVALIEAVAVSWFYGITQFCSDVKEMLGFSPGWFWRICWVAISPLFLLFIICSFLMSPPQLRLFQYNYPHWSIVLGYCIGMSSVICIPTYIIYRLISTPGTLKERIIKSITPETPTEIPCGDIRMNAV
UniProt P16469, whole entry: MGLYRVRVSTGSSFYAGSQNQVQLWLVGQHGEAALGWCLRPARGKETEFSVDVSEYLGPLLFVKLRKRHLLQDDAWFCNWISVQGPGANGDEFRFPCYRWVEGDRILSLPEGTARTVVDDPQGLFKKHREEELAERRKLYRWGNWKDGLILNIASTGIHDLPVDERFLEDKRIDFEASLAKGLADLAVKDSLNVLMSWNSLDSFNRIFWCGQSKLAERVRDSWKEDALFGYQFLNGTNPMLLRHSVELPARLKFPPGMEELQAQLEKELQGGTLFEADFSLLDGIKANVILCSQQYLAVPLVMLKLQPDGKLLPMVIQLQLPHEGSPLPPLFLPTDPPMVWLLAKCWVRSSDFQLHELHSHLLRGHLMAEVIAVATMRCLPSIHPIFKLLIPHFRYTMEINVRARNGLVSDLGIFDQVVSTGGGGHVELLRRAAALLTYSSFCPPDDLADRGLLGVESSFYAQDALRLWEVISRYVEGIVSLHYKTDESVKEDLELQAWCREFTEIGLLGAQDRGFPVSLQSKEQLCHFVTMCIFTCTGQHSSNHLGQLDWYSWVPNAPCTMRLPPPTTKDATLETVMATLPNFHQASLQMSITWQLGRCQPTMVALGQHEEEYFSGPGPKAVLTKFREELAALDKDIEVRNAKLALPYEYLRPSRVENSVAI

With CNCC(=O)N[C@@H](Cc1c[nH]c2ccccc12)C(=O)N[C@H](C(=O)N[C@@H](CC(C)C)C(=O)N[C@@H](CC(N)=O)C(=O)N[C@@H](CO)C(=O)N[C@@H](C)C(=O)NCC(=O)N[C@@H](Cc1ccc(O)cc1)C(=O)N[C@@H](CC(C)C)C(=O)N[C@@H](CC(C)C)C(=O)NCC(=O)N1CCC[C@H]1C(=O)N[C@@H](CCCCN)C(=O)N[C@@H](CCCCN)C(=O)N[C@@H](CCCCN)C(=O)N[C@@H](CCCCN)C(N)=O)[C@@H](C)O the logD was 0.34 (HPLC retention calibrated; octanol/PBS).
NC1=NC2(CCCCC2)N(c2ccc(OCc3cn(CCCCOc4ccc5ccc(=O)oc5c4)nn3)cc2)C(N)=N1 has a selectivity index of > 4000 (red blood cells; hemolysis; baseline: hemolytic LC50 over MIC50).
The selectivity ratio of O=C(N[C@@H]1CC[C@@]2(O)[C@H]3Cc4ccc(O)c5c4[C@@]2(CCN3CC2CC2)[C@H]1O5)c1ccncc1F is reported as 436 fold (opioid receptors; binding; baseline: Ki DOR over Ki MOR).
With CCC(=O)Nc1c(NC[C@H](O)[C@H](O)[C@H](O)CO)[nH]c(=O)[nH]c1=O the Ks was 58 ± 8 µM (6,7-dimethyl-8-ribityllumazine synthase (ribH, Mycobacterium tuberculosis, UniProt P9WHE9); substrate; pH 7.0).
C=CC[N+](C)(C)c1ccc(CCC(=O)CCc2ccc([N+](C)(C)CC=C)cc2)cc1 has an IC50 of > 3000 µM (HeLa; cytotoxicity, MTT).
CN(CCNCc1cc(Cl)cc(Cl)c1)c1nc2nc(Cl)ccc2[nH]1 gave a CC50 of 39.2 µM (Hep G2).
NCCNCCSc1ccccc1 gave a long-term stability of 94.1 ± 1.77 % remaining (urine; 1 µg/mL, 30 days, -20 °C).
For O=C(N[C@@H]1CC[C@@]2(O)[C@H]3Cc4ccc(O)c5c4[C@@]2(CCN3CC2CC2)[C@H]1O5)c1ccnc(Br)c1, the selectivity ratio was 3.5 (Kappa-type opioid receptor (Oprk1, Mus musculus, UniProt P33534); baseline: Ki µ over Ki κ).
Under “remaining parent compound”, Cc1cc(C)c2c(N)c(C(=O)NCc3ccc4c(c3)OCO4)sc2n1 is recorded as < 10% (human liver microsomes; 90 min).
For c1cc[n+](CCCCCCCCCC[n+]2ccccc2)cc1, the LD50 was 63.9 mg/kg (mouse; intramuscular, 24 h).
CN(C(=O)Cc1ccc(Cl)c(Cl)c1)[C@@H]1CCCC[C@H]1N1CCCC1 — result for “time above EC99”: 4 h (mouse; oral, 150 mg/kg).
The pKa of CCN(CC)Cc1cc(N)ccc1O is reported as ~9.
With Nc1nc(Cl)nc2c1ncn2[C@H]1[C@H](O)[C@H](O)[C@]2(CO)C[C@H]12 the inhibition was 5% (5-hydroxytryptamine receptor 2A (HTR2A, Homo sapiens, UniProt P28223); 10 µM, with: [3H]ketanserin).
Clc1ccc(COC2(c3ccccc3)CC3CCC(C2)N3)cc1Cl (stereo not drawn) gave a selectivity ratio of 258 (Sodium-dependent serotonin transporter (Slc6a4, Rattus norvegicus, UniProt P31652); baseline: Ki DAT over Ki SERT).
For c1ccc2c(c1)ccc[n+]2CCCCCCCCCC[n+]1cccc2ccccc21, the IC50 was 1710 µM (ACHN; cytotoxicity, MTT).
CCOc1ccc2cc(-c3nn(C(C)(C)C)c(N)c3C(N)=O)cnc2c1 has a plasma concentration of ≤ 5 µM (cattle, plasma; dose not given, maximum level achieved).
c1ccc2c[n+](CCCCCCCC[n+]3ccc4ccccc4c3)ccc2c1 has an LD50 of 97.2 mg/kg (mouse; intramuscular, 24 h).
With Ic1ccc(CSCn2ccnc2)cc1 the Ki was > 10 µM (Arachidonate 12-lipoxygenase (ALOX15, Sus scrofa, UniProt P16469); enzyme activity, inhibitor).

For quick reference, copied from above:
CN(C(=O)Cc1ccc(Cl)c(Cl)c1)[C@@H]1CCCC[C@H]1N1CCCC1 — result for “time above EC99”: 4 h (mouse; oral, 150 mg/kg).
The pKa of CCN(CC)Cc1cc(N)ccc1O is reported as ~9.
With Nc1nc(Cl)nc2c1ncn2[C@H]1[C@H](O)[C@H](O)[C@]2(CO)C[C@H]12 the inhibition was 5% (5-hydroxytryptamine receptor 2A (HTR2A, Homo sapiens, UniProt P28223); 10 µM, with: [3H]ketanserin).
